Published values collected from several papers.
Protocols differ between the studies behind these lines. Numbers after ± are the reported error.
Cell line: SK-OV-3

| Compound | test | setting | IC50 |
| --- | --- | --- | --- |
| [Cl][Cu][Cl].c1ccc(-c2nnc(-c3ccc4c(c3)OCO4)[nH]2)nc1 | cell growth or viability, MTT | 24 h | 4.04 µM |
| C=CCc1ccc(OCc2nnc(SCC(=O)Nc3ccc(Cl)cc3Cl)o2)c(OC)c1 | cell growth or viability, MTT | 72 h | 70 µM |
| COc1ccc2cc([C@H](C)C(=O)[O][Pt]([NH2])([NH2])([Cl])([Cl])[O]C(=O)[C@@H](C)c3ccc4cc(OC)ccc4c3)ccc2c1 | cell growth, MTT | 48 h | 0.08 ± 0.01 µM |
| COc1ccc(CC2COC(=O)C2Cc2ccc3c(c2)OCO3)cc1OC (mixture of isomers) | cytotoxicity, MTT | 72 h | 14.4 ± 0.34 µM |
| CCC(=O)N1CCC(CCCC(=O)N2CCN(c3nc(-c4cnc(N)nc4C(F)F)nc(N4CCOCC4)n3)CC2)CC1 | Akt phosphorylation, inhibitor, in-cell western, refers to: Akt pSer473 | 1 h | 0.04 µM |
| O=C(/C=C/c1ccc2c(c1)C(=O)N(CCCc1ccccc1)CC2)NO | cell growth, SRB | 72 h | 1.04 ± 0.38 µM |
| Cc1ccc2nc(Cl)c(-c3nc4cc(Cl)c(Cl)cc4[nH]3)cc2c1 | cell growth or viability, MTT | 48 h | > 100 µM |
| CC1(C)[C@@H](O)CC[C@]2(C)[C@H]3C(=O)C=C4[C@@H]5C[C@@](C)(C(=O)O)CC[C@]5(C)CC[C@@]4(C)[C@]3(C)CC[C@@H]12 | cell growth or viability, MTT | 48 h | 98.5 µM |
| O=[N+]([O-])[O-].O=[N+]([O-])[O-].[Cu+2].[Cu+2].c1ccc(-c2nc(-c3ccc4c(c3)OCO4)n[n-]2)nc1.c1ccc(-c2nc(-c3ccc4c(c3)OCO4)n[n-]2)nc1 | cell growth or viability, MTT | 24 h | 3.81 µM |
| Clc1cc2nc(-c3cc4ccccc4nc3Cl)[nH]c2cc1Cl | cell growth or viability, MTT | 48 h | 21.4 µM |
| C=CCc1ccc(OCc2nnc(SCC(=O)Nc3ccccc3Cl)o2)c(OC)c1 | cell growth or viability, MTT | 72 h | 15.7 µM |
| COc1ccc2nc(Cl)c(-c3nc4ccccc4[nH]3)cc2c1 | cell growth or viability, MTT | 48 h | 23 µM |
| CC(C)(C)c1cc2c(O)c(c1)Cc1cc(C(C)(C)C)cc(c1OCC(=O)NCc1ccncc1)Cc1cc(C(C)(C)C)cc(c1O)Cc1cc(C(C)(C)C)cc(c1OCC(=O)NCc1ccncc1)COC2 | cell growth or viability, MTT | 72 h | 3.8 µM |
| O=C(Cc1ccc2ccccc2c1)N[C@H](Cc1ccccc1)C(=O)N[C@H](Cc1ccc(OP(=O)(O)O)cc1)C(=O)N[C@H](Cc1ccccc1)C(=O)N[C@H](Cc1ccc(OP(=O)(O)O)cc1)C(=O)O | cell growth or viability, MTT |  | > 483 µg/mL |
| Fc1ccc2[nH]c(-c3cc4ccccc4nc3Cl)nc2c1 | cell growth or viability, MTT | 48 h | > 100 µM |
| COc1ccc(-c2nnc(-c3ccccn3)[nH]2)cc1OC | cell growth or viability, MTT | 24 h | > 100 µM |
| Cc1ccc2nc(Cl)c(-c3nc4ccccc4[nH]3)cc2c1 | cell growth or viability, MTT | 48 h | > 100 µM |
| COc1ccc2cc([C@H](C)C(=O)[O][Pt-2]34([O]C(=O)[C@@H](C)c5ccc6cc(OC)ccc6c5)([NH2+][C@@H]5CCCC[C@H]5[NH2+]3)[O]C(=O)C(=O)[O]4)ccc2c1 | cell growth, MTT | 72 h | 15.4 ± 0.4 µM |
| Cc1cc2nc(-c3cc4cc5c(cc4nc3Cl)OCO5)[nH]c2cc1C | cell growth or viability, MTT | 48 h | > 100 µM |
| C=CCc1ccc(OCc2nnc(SCC(=O)Nc3cccc(Cl)c3)o2)c(OC)c1 | cell growth or viability, MTT | 72 h | 41.1 µM |

Repeated from above:
| Compound | test | setting | IC50 |
| --- | --- | --- | --- |
| COc1ccc2cc([C@H](C)C(=O)[O][Pt]([NH2])([NH2])([Cl])([Cl])[O]C(=O)[C@@H](C)c3ccc4cc(OC)ccc4c3)ccc2c1 | cell growth, MTT | 48 h | 0.08 ± 0.01 µM |
| O=[N+]([O-])[O-].O=[N+]([O-])[O-].[Cu+2].[Cu+2].c1ccc(-c2nc(-c3ccc4c(c3)OCO4)n[n-]2)nc1.c1ccc(-c2nc(-c3ccc4c(c3)OCO4)n[n-]2)nc1 | cell growth or viability, MTT | 24 h | 3.81 µM |
